{"data": "Experimental data gathered from unrelated publications", "TDP1": "Tyrosyl-DNA phosphodiesterase 1 (TDP1, Homo sapiens, UniProt Q9NUW8)", "note": "Protocols differ between the studies behind these lines. “And” joins repeats or separate records; there may be more than shown. ± marks the error that the study gave.", "chain of UniProt Q9NUW8 (whole entry, looked up)": "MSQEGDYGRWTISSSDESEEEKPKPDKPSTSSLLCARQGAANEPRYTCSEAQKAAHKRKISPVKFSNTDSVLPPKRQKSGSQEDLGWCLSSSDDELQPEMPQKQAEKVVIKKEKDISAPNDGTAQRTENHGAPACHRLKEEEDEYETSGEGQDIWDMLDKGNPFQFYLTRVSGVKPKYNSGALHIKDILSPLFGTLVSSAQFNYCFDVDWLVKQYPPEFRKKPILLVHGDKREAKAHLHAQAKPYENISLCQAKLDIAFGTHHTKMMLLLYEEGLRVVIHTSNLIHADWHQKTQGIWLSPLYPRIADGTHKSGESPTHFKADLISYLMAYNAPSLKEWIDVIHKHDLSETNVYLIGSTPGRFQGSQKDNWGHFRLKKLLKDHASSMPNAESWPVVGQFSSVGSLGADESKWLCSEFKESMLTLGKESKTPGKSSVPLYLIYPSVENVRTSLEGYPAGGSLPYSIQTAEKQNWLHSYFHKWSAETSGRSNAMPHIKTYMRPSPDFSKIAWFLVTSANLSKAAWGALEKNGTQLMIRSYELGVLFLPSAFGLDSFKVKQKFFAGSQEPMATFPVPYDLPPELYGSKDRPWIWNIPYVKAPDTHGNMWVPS"}
{"Compound": "O=C1c2sc(-c3ccc(N4CCC(F)C4)nc3F)nc2CCN1c1cccnc1 (stereo not shown)", "target": "TDP-43 (human)", "test": "CFTR exon splicing", "test system": "SH-SY5Y", "setting": "1 µM, TDP-43-controlled CFTR minigene", "measurement": "exon inclusion", "result": "48.7% and 45% and 42.1% and 48.4%"}
{"Compound": "c1ccc(-c2n[nH]cc2-c2ccnc3ccccc23)nc1", "target": "FUN31 (Candida albicans)", "test": "kinase binding, MIB/MS competition", "test system": "Candida albicans lysate", "setting": "10 µM", "how to read": "baseline: DMSO", "measurement": "log2 fold change", "result": 0.02}
{"Compound": "NCCOc1cc(NC(=O)c2cc(Cl)cc(C(=O)Nc3cc(OCCN)c4ccccc4n3)n2)nc2ccccc12", "target": "c-kit2 G-quadruplex DNA", "test": "FRET melting", "setting": "1 µM, pH 7.4, with: 60 mM potassium", "measurement": "ΔTm", "result": "14.4 ± 0.6 K"}
{"Compound": "Cc1cn(CC(=O)N(CC(=O)N[C@H]2COC[C@@H]2N(CC(=O)NCCOCCOCC(N)=O)C(=O)Cn2cnc3c(N)ncnc32)[C@H]2COC[C@@H]2NC(=O)CN(C(=O)Cn2cnc3c(N)ncnc32)[C@H]2COC[C@@H]2NC(=O)CN(C(=O)Cn2cnc3c(=O)[nH]c(N)nc32)[C@H]2COC[C@@H]2NC(=O)CN(C(=O)Cn2cc(C)c(=O)[nH]c2=O)[C@H]2COC[C@@H]2NC(=O)CN(C(=O)Cn2cnc3c(=O)[nH]c(N)nc32)[C@H]2COC[C@@H]2NC(=O)CN(C(=O)Cn2cc(C)c(=O)[nH]c2=O)[C@H]2COC[C@@H]2NC(=O)CN(C(=O)Cn2cnc3c(N)ncnc32)[C@H]2COC[C@@H]2NC(=O)CN(C(=O)Cn2cnc3c(=O)[nH]c(N)nc32)[C@H]2COC[C@@H]2N)c(=O)[nH]c1=O", "target": "mismatched RNA TC", "test": "duplex formation, UV melting", "how to read": "baseline: complementary RNA", "measurement": "ΔTm", "result": "-19.4 °C"}
{"Compound": "CC(=O)c1cnc(N)nc1N1CC[C@H]1c1nn2ccc(Cl)c2c(=O)n1-c1ccccc1", "target": "PI3Kγ", "test": "KiNativ", "test system": "monkey white blood cell lysate", "setting": "1 µM", "measurement": "binding", "result": "93.3%"}
{"Compound": "O=C(O)c1ccc(Nc2c(-c3ccccc3)nc3ccc(CON=Cc4cccc5c4OCO5)cn23)cc1 (mixture of isomers)", "target": "TDP1", "test": "enzyme activity, inhibitor", "setting": "100 µM, unpurified compound", "measurement": "inhibition", "result": "20.1%"}
{"Compound": "Cc1[nH]nc2c1N=C(c1ccccc1Cl)c1cnc(N3CCOCC3)cc1N2", "target": "phorbol ester binding site, mouse", "test": "radioligand binding", "setting": "10 µM", "measurement": "inhibition", "result": "-6%"}
{"Compound": "COc1ccc(Br)c(C=NOCc2ccc(-c3nc4cc(-c5ccccc5)ccn4c3Nc3ccc(C(=O)O)cc3)cc2)c1OC (mixture of isomers)", "target": "TDP1", "test": "enzyme activity, inhibitor", "setting": "100 µM, unpurified compound", "measurement": "inhibition", "result": "71.4%"}
{"Compound": "Nc1ncc(-c2cc(-c3cnn(CC(F)(F)F)c3)ncc2F)nc1C(=O)NC1CNCC(F)C1 (stereo not shown)", "target": "BIKE", "test": "KINOMEscan competition binding", "setting": "1 µM", "how to read": "baseline: DMSO control", "measurement": "remaining binding", "result": "51%"}
{"Compound": "Cc1ccc(-n2cc(CSc3nc4ccccc4n3Cc3cn(-c4ccc(C)cc4)nn3)nn2)cc1", "target": "tubulin", "test": "tubulin polymerization, inhibitor", "test system": "MDA-MB-231", "setting": "50, 100, 500 ppm", "measurement": "geometric mean inhibition", "result": "2.96%"}
{"Compound": "C=CC(=O)Nc1cccc(Cn2ncc3cnc(Nc4cnn(CCOC)c4)nc32)c1", "target": "SRPK3 human", "test": "binding, KINOMEscan", "setting": "100 nM", "how to read": "lower = stronger binding", "measurement": "percent of control", "result": "16%"}
{"Compound": "C=CC(=O)N1[C@@H](c2ccc3c(c2)OCO3)c2[nH]c3ccccc3c2C[C@H]1C(=O)N1CCN(C)CC1", "target": "human cyclin E1 wild type-3xFLAG:CDK2", "test": "co-IP with TMT proteomics, refers to: CDKN1A", "setting": "concentration not given, P38936", "how to read": "baseline: wild type DMSO", "measurement": "relative co-enrichment", "result": "115%"}
{"Compound": "Cn1cc(-c2cc(N3CCCCS3(=O)=O)ccc2N[C@H]2CC[C@H](C)CC2)c2cc[nH]c2c1=O (stereo in doubt)", "target": "TRIM33 PHD-bromodomain (human)", "test": "bromodomain binding, competition binding", "setting": "1 µM", "how to read": "baseline: control", "measurement": "remaining binding", "result": "100%"}
{"Compound": "CNC(=O)C1CCN(c2cc(C)c(F)cc2NC(=O)c2ccc(-c3cc(O)ccc3C)c(C)c2)CC1", "target": "FLT3 ITD (human)", "test": "binding, KINOMEscan", "setting": "1000 nM", "measurement": "percent of control", "result": "100%"}
{"Compound": "CCC(=O)N(C)c1ccc(Cl)c(Cl)c1", "target": "central benzodiazepine receptor", "test": "radioligand binding", "setting": "10 µM", "measurement": "inhibition", "result": "< 10%"}
{"Compound": "NCCOc1cc(NC(=O)c2cc(OCc3cn([C@H]4O[C@@H](CO)[C@H](O)[C@@H](O)[C@@H]4O)nn3)cc(C(=O)Nc3cc(OCCN)c4ccccc4n3)n2)nc2ccccc12", "target": "c-kit2 G-quadruplex DNA", "test": "FRET melting", "setting": "1 µM, pH 7.4, with: 60 mM potassium", "measurement": "ΔTm", "result": "13.2 ± 0.3 K"}
{"note": "Excerpt of the above:"}
{"Compound": "O=C(O)c1ccc(Nc2c(-c3ccccc3)nc3ccc(CON=Cc4cccc5c4OCO5)cn23)cc1 (mixture of isomers)", "target": "TDP1", "test": "enzyme activity, inhibitor", "setting": "100 µM, unpurified compound", "measurement": "inhibition", "result": "20.1%"}
